Results from different studies.
Every numbered part comes from another study and shows a few of its results, in no order. Changes are numbered by the printed parent chain.

Study 1
Target: Histone acetyltransferase KAT6A, winged helix 2, GST fusion (KAT6A, Homo sapiens, UniProt Q92794, residues 85-181)
Technique: protein binding microarray
Molecule type: double-stranded DNA, one strand shown
Matrix: in vitro
Tested at: not given
Setting: 8-mer, flanks averaged, mean of 2 arrays, mostly near background
Relative to: not given
Direction: higher = stronger binding
Construct (chain): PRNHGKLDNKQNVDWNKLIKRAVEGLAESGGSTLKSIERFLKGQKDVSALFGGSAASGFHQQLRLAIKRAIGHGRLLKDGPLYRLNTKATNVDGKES
For `CTGAAAAC`, the E-score was 0.0207.
The E-score of `CCTACTCA` is reported as -0.0359.
`CTCATCAC` has an E-score of -0.191.
The E-score of `AGCTCCCC` is reported as -0.12.
The E-score of `TGCTGACA` is reported as 0.137.
`GGATCCCC` has an E-score of 0.000225.
For `AATAACAA`, the E-score was 0.0459.
`CTTGCGGA` has an E-score of 0.0775.
`ACTACAAA` gave an E-score of -0.0124.
For `GCTTAGAA`, the E-score was -0.0184.
The E-score of `ATGTCTAA` is reported as 0.0309.
The E-score of `AGTAATTG` is reported as -0.0193.
With `TATTAATA` the E-score was -0.145.
`ATGCGCCC` gave an E-score of 0.188.

Study 2
Target: CCNB2, cyclin fold, Cln2 fusion (human)
Technique: yeast growth competition, sequencing
Matrix: yeast
Setting: weak parent motif
Relative to: not given
Direction: higher = stronger binding
Parent: INSM1 docking peptide (human); PKAIRKLHFEDEV
Under “normalised enrichment score”, `D11M` is recorded as 0.286.
`I4P`: “normalised enrichment score” 0.476.
`L7E` — result for “normalised enrichment score”: -0.106.
For `K2M`, “normalised enrichment score” read -0.0546.
For `K6W`, “normalised enrichment score” read 0.0465.
`D11S`: “normalised enrichment score” 0.351.
For `K2A`, “normalised enrichment score” read 0.116.
Under “normalised enrichment score”, `I4T` is recorded as 0.265.

Study 3
Target: Sal-like protein 4, full length isoform A (SALL4, Homo sapiens, UniProt Q9UJQ4, residues 1-1053)
Sequence of UniProt Q9UJQ4 (whole entry, looked up): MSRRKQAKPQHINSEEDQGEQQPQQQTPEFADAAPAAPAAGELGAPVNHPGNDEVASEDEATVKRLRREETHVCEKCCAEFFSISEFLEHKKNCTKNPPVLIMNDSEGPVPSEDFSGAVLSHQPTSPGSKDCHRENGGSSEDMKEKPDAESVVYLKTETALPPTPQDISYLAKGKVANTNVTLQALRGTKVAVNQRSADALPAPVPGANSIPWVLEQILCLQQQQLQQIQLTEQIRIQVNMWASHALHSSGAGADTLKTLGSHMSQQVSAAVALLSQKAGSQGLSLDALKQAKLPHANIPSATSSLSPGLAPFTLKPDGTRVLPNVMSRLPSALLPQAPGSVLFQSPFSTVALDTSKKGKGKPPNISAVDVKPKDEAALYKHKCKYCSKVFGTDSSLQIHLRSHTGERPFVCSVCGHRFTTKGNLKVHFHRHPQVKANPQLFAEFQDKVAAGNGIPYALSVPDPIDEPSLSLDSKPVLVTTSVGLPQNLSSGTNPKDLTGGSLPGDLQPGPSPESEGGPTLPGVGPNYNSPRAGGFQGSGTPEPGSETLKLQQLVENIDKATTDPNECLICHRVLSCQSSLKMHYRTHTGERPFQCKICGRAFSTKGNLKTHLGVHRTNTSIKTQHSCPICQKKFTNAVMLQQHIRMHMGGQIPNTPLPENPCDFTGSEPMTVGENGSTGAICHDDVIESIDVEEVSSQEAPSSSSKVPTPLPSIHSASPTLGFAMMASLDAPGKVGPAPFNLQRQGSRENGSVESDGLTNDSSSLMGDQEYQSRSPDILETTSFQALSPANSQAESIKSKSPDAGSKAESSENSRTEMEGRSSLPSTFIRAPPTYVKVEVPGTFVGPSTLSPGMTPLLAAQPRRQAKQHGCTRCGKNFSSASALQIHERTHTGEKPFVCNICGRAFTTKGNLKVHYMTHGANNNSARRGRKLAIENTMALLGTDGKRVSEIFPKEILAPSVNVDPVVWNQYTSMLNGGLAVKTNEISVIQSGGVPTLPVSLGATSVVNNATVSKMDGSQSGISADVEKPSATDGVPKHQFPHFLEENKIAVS
Technique: universal PBM
Molecule type: double-stranded DNA, one strand shown
Matrix: in vitro
Tested at: 600 nM
Setting: 8-mer, flanks averaged, mean of replicates
Direction: higher = stronger binding
For `GTATTCCA`, the E-score was 0.0333.
The E-score of `ACTCATCG` is reported as 0.086.
`AGGGCAAC` has an E-score of -0.134.
For `GTGTCCGA`, the E-score was -0.119.
The E-score of `CACAGGTC` is reported as -0.193.
For `GTACTCAC`, the E-score was 0.015.
The E-score of `GTTAGTCA` is reported as 0.164.
`GAGCATAA` has an E-score of 0.191.
With `GACGTCGC` the E-score was -0.352.
The E-score of `GCAGGAGC` is reported as -0.222.
The E-score of `ATAAGGTG` is reported as 0.117.
`CCTATGAA` has an E-score of 0.129.

Mixed results
With `PhoQ, residues 284 288 289 292 302 303 SNSSNI` the fold induction was 2.3 (PhoP, residues 12 14 15 18 19 NMSSL (Escherichia coli, UniProt P23836); Sort-seq, refers to: YFP reporter; E. coli; PhoQ-PhoP variant library, together with: 10 µM Mg2+; relative to: high Mg2+ state, higher = stronger signaling).
